Published values of several laboratories.
Each line is one published result; not all experiments were run side by side.
CDK1 with cyclin B: Cyclin-dependent kinase 1, with cyclin B (CDK1, Homo sapiens, UniProt P06493)
Chain of UniProt P06493 (whole entry, looked up): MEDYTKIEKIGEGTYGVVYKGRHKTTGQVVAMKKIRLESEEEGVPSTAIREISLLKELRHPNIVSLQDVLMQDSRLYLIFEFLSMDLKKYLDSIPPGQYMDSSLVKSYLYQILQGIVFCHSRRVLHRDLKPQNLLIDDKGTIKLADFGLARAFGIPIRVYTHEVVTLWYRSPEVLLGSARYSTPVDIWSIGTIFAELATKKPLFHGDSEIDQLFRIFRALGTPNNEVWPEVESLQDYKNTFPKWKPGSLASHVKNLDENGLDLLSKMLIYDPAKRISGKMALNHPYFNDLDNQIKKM
PIK3CB: Phosphatidylinositol 4,5-bisphosphate 3-kinase catalytic subunit beta isoform (PIK3CB, Homo sapiens, UniProt P42338)
Chain of UniProt P42338 (whole entry, looked up): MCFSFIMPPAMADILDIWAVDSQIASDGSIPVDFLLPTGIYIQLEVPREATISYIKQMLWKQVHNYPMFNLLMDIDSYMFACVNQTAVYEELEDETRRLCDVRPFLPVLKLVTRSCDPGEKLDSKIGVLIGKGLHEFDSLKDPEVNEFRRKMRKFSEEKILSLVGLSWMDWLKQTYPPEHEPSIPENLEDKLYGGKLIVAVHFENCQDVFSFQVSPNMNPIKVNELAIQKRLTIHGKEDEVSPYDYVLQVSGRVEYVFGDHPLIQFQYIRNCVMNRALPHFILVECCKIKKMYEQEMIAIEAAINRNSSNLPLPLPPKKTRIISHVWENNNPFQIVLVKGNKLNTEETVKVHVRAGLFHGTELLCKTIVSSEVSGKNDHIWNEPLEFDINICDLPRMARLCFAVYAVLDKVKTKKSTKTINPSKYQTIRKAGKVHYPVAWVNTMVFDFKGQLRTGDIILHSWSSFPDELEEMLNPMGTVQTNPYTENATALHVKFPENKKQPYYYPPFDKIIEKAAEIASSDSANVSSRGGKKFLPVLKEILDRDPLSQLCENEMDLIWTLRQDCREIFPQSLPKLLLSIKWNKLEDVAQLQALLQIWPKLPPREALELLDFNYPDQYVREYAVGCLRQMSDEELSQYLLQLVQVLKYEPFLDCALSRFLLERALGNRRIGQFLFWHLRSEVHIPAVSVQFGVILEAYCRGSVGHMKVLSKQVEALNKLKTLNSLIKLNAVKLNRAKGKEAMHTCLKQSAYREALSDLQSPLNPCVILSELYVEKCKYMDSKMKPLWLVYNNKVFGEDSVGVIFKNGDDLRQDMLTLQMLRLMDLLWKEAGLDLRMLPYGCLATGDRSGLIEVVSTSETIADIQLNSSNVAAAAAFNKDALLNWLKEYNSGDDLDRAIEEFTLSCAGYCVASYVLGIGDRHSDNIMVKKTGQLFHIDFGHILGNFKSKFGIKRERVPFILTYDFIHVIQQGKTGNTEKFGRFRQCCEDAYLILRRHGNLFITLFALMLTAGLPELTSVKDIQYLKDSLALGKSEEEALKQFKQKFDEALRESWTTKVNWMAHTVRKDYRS
CDK2 with cyclin A: Cyclin-dependent kinase 2, with cyclin A (CDK2, Homo sapiens, UniProt P24941)
PSMB6: Proteasome subunit beta type-6 (PSMB6, Homo sapiens, UniProt P28072)
Chain of UniProt P28072 (whole entry, looked up): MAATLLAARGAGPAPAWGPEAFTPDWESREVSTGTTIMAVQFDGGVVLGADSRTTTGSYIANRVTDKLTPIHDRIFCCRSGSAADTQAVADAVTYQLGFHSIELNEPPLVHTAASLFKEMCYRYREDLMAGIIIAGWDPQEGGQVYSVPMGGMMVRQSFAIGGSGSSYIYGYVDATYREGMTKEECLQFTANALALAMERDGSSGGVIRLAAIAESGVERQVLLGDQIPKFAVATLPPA
Genome polyprotein protease: Genome polyprotein, protease (Hepatitis C virus genotype 1b, UniProt O92972)
HDAC3: Histone deacetylase 3 (HDAC3, Homo sapiens, UniProt O15379)
Chain of UniProt O15379 (whole entry, looked up): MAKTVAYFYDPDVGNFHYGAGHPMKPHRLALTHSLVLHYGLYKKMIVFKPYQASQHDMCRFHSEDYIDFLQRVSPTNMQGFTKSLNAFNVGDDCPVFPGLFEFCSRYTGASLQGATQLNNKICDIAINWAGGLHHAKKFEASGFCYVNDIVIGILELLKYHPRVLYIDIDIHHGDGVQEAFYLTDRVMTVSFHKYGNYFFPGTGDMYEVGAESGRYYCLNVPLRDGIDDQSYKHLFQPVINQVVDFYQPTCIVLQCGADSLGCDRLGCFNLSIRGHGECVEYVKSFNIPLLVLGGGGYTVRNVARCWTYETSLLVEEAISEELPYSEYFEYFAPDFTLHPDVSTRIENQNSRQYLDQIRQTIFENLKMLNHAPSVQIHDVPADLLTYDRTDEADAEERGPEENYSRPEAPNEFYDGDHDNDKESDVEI
Chain of UniProt P35346 (whole entry, unmodified, looked up): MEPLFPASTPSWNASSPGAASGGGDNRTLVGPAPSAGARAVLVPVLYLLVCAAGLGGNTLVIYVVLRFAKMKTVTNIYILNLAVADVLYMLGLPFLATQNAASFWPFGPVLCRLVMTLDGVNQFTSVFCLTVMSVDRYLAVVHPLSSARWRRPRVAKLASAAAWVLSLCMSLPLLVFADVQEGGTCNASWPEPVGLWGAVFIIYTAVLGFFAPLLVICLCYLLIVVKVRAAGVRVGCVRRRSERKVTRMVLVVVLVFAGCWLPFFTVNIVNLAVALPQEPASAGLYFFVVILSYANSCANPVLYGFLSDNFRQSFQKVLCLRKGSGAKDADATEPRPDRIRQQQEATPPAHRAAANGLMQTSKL
Chain of UniProt Q8NEC5 (whole entry, looked up): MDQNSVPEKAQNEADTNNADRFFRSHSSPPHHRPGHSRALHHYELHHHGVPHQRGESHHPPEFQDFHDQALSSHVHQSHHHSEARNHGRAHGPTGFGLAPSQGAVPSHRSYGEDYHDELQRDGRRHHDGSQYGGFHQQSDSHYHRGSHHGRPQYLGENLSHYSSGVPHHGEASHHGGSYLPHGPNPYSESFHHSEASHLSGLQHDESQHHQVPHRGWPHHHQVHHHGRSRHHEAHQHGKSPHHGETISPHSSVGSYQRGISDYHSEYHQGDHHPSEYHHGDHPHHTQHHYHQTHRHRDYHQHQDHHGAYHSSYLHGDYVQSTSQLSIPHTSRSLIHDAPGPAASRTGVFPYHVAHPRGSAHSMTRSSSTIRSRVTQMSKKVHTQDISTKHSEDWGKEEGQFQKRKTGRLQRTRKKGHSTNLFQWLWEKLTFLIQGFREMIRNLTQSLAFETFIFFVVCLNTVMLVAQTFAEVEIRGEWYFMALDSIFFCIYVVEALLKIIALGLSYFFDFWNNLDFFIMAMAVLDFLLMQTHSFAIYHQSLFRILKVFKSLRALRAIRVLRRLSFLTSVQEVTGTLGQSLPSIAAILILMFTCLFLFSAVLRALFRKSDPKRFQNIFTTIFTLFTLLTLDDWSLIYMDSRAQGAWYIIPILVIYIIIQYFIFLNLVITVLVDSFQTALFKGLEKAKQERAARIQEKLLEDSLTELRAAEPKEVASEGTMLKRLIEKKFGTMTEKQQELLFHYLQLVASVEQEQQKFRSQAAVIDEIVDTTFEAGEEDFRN
Chain of UniProt P14060 (whole entry, looked up): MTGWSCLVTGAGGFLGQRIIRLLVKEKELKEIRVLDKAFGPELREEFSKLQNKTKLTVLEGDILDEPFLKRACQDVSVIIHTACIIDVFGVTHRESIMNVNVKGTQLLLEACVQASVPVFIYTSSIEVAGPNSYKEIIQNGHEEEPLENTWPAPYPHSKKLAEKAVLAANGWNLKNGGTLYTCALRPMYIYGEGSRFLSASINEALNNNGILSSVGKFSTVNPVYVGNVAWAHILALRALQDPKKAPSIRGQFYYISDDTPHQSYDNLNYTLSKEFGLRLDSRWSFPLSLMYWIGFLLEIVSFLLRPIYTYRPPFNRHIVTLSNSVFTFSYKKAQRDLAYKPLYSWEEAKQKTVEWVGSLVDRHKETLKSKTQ
Chain of UniProt Q86XQ3 (whole entry, looked up): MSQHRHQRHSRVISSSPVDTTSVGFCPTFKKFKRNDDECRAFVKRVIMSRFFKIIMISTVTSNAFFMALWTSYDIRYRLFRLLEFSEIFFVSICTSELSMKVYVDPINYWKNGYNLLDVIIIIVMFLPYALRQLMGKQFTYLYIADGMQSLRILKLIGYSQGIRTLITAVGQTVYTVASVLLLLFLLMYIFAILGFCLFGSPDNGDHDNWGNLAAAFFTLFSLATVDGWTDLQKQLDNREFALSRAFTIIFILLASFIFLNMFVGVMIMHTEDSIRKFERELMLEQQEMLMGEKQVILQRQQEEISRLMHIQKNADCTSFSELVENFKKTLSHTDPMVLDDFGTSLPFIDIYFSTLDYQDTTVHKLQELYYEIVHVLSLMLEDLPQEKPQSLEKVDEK
Chain of UniProt P40306 (whole entry, looked up): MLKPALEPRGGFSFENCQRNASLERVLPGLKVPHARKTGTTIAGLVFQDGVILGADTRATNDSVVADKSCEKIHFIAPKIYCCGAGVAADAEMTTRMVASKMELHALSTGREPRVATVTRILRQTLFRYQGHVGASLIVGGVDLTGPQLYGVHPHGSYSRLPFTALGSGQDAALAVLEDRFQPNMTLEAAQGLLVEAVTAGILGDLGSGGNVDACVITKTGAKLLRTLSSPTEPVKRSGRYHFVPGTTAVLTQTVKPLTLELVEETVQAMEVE
Chain of UniProt Q9BY41 (whole entry, looked up): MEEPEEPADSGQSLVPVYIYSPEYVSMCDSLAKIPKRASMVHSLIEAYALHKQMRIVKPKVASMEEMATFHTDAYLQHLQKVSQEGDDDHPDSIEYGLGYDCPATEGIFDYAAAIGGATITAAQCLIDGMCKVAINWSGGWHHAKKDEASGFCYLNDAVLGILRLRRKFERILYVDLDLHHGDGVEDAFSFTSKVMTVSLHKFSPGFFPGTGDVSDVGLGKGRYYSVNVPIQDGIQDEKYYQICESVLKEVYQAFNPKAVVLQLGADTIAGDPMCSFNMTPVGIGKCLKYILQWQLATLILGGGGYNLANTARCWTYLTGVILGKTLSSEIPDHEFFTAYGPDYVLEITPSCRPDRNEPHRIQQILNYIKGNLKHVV
Chain of UniProt Q07440 (whole entry, unmodified, looked up): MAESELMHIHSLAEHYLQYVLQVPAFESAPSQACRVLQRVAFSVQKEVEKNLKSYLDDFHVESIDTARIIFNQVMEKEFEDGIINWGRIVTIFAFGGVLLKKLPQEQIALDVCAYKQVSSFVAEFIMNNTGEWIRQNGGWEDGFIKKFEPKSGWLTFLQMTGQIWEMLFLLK

Structure (SMILES)	tested on	assay	system	conditions	how to read	quantity	result
Cc1ccc(C(=O)Nc2ccnc(S(N)(=O)=O)c2)c(N2CCCC(F)(F)CC2)n1	SCN8A (Homo sapiens, UniProt Q9UQD0)	Nav1.6 sodium current, inhibitor, automated patch clamp	–	–	–	IC50	> 33800 nM
Cc1nn(-c2cccc(N)c2)c(=O)c2cnc(Nc3ccc(N4CCNCC4)cc3)nc12	CDK1 with cyclin B	enzyme activity, inhibitor	–	–	–	IC50	> 10000 nM
O=C1Nc2ccccc2/C1=N/c1ccc(Cl)cc1Br	PIK3CB	enzyme activity, inhibitor, ADP detection	–	–	–	IC50	71.7 nM
CCN(CC)CC(=O)Nc1cccc(-n2cc(-c3ccc4ccc(-c5cn(-c6cccc(NC(=O)CN(CC)CC)c6)nn5)cc4c3)nn2)c1	CDK1 with cyclin B	–	–	–	–	IC50	> 10000 nM
C=CC(=O)Nc1ccc(F)c(-c2ncnc3[nH]cc(C(=O)OCC)c23)c1	ITK (Homo sapiens, UniProt Q08881)	kinase activity	–	with: ATP 1 mM	–	IC50	4630 nM
C=CC(=O)Nc1cccc(Cn2ncc3cnc(Nc4cnn(CCOC)c4)nc32)c1	ADCK3 human	binding, KINOMEscan	–	100 nM	lower = stronger binding	percent of control	100%
OCC1OC(n2cnc3c(NCc4ccc(Br)s4)ncnc32)C(O)C1O (stereo not shown)	SLC29A1 (Homo sapiens, UniProt Q99808)	ligand displacement, radioligand	–	–	–	IC50	150 nM
O=C(Nc1cc(-c2ccc(Cl)cc2)[nH]n1)c1cccc(O)c1	CDK2 with cyclin A	radiometric	–	with: 1 µM ATP	–	IC50	5400 nM
COc1ccccc1/C=C1\C(=O)Nc2ccc(Nc3nc(C)nc4ccccc34)cc21	PIK3CB	enzyme activity, inhibitor, ADP detection	–	–	–	IC50	176 nM
O=C(Nc1cc(-c2c(F)cccc2F)[nH]n1)C1CCC1	CDK2 with cyclin A	radiometric	–	with: 1 µM ATP	–	IC50	1900 nM
CC(C)C[C@H](NC(=O)[C@H](Cc1ccc(CN)cc1)NC(=O)[C@H](Cc1ccccc1)N=[N+]=[N-])C(=O)N[C@@H](CC1CCCC2CCCCC21)C(=O)[C@@]1(C)CO1 (stereo partly shown)	PSMB6	competitive ABPP	Raji cell lysate	–	–	IC50	> 10000 nM
CCOc1cc(CN2CCC3(CC2)CN(c2ccc(C(=O)O)cc2)C(=O)N3)c(C2CC2)cc1C	SSTR5 (Homo sapiens, UniProt P35346, L96A)	cAMP level, antagonist, GloSensor	AD293	L96A mutant, bandwidth 2.60, with: CST17 EC80 and forskolin	–	IC50	447 nM
C=C(NC(=O)c1csc(-c2nc3c(cc2O)-c2nc(cs2)C(=O)NC(C(C)O)C(=O)NC(=C(C)OC)c2nc(cs2)C(=O)NC2c4nc(cs4)C(=O)NC(COC(=O)c4c5c6c(cccc6n4O)COC(=O)C(OC4CC(C)(O)C(N(C)C)C(C)O4)C2OC5)c2nc-3cs2)n1)C(N)=O (stereo not shown)	–	–	female cynomolgus monkey, plasma	intravenous, 9 mg/kg, single dose, infusion	–	AUC(0-t)	42400 ng·h/mL
CCCC(=O)OC1CCC2(C)C(CCC3(C)C2CC=C2C4C(C)C(C)CCC4(C(=O)O)CCC23C)C1(C)C (stereo not shown)	UGT1A8 (Homo sapiens, UniProt Q9HAW9)	enzyme activity, inhibitor	–	–	–	IC50	> 100000 nM
C[C@H](CCC(=O)O)[C@H]1CC[C@H]2[C@@H]3[C@H](O)C[C@@H]4C[C@H](O)CC[C@]4(C)[C@H]3CC[C@]12C	SLC10A1 (Homo sapiens, UniProt Q14973)	preS1 binding, inhibitor, fluorescence	HepG2-hNTCP-C4	with: myristoylated preS1(2-48)-TAMRA	–	IC50	37900 nM
O=C1C(Nc2ccc(Cl)cc2)c2ccccc2N1Cc1ccccc1 (stereo not shown)	PIK3CB	enzyme activity, inhibitor, ADP detection	–	–	–	IC50	50.7 nM
Cc1ccc2c(c1)nc(NC(=O)c1cccc(C(F)(F)F)c1)n2[C@H]1CC[C@H](N)CC1	CDC2-like kinase 1 (Trypanosoma brucei brucei, UniProt Q382U0)	enzyme activity, inhibitor, ADP-Glo	–	–	–	IC50	> 20000 nM
NC(=O)c1cccc2cn(-c3cc(F)c(C4CCCC(CCO)C4)c(F)c3)nc12 (stereo not shown)	PARP1 (Homo sapiens, UniProt P09874)	enzyme activity, inhibitor, radiometric	–	–	–	IC50	0.69 nM
ClC1C[N+]2=Cc3ccc4[n]3[Au-]23[n]2c(ccc2-c2nc5ccccc5nc2-4)C=[N+]3C1.F[P-](F)(F)(F)(F)F	DNA topoisomerase 1 (TOP1, Homo sapiens, UniProt P11387)	enzyme activity, inhibitor	–	–	–	IC50	8800 nM
CNS(=O)(=O)Nc1nccc(Cc2c(C)c3ccc(Oc4ncccc4F)cc3oc2=O)c1F	MKN-45	cell viability	–	7 days	–	IC50	28.8 nM
C=C1CC[C@H](OCCCNC(=O)CCOCCOCCOCCOCCOCCOCCOCCOCCOCCOCCOCCOCCOCCOCCOCCOCCOCCOCCOCCOCCOCCOCCOCCOCCOCCOCCOCCOCCOCCOCCOCCOCCOCCOCCOCCOCCNC(=O)CCN2C(=O)CC(SC[C@H](NC(=O)[C@H](Cc3ccccc3)NC(=O)[C@H](CC(N)=O)NC(=O)[C@H](Cc3c[nH]cn3)NC(=O)[C@@H](NC(=O)[C@H](CC(=O)O)NC(=O)[C@H](CCC(N)=O)NC(=O)[C@H](CC(C)C)NC(=O)[C@H](CCCCN)NC(=O)[C@H](CCCCN)NC(=O)[C@H](CCCNC(=N)N)NC(=O)[C@H](CC(C)C)NC(=O)[C@H](Cc3c[nH]c4ccccc34)NC(=O)[C@H](CCC(=O)O)NC(=O)[C@@H](NC(=O)[C@H](CCCNC(=N)N)NC(=O)[C@H](CCC(=O)O)NC(=O)[C@H](CCSC)NC(=O)[C@H](CO)NC(=O)[C@H](CC(N)=O)NC(=O)[C@H](CC(C)C)NC(=O)[C@H](Cc3c[nH]cn3)NC(=O)[C@H](CCCCN)NC(=O)CNC(=O)[C@H](CC(C)C)NC(=O)[C@H](CC(N)=O)NC(=O)[C@H](Cc3c[nH]cn3)NC(=O)[C@H](CCSC)NC(=O)[C@H](CC(C)C)NC(=O)[C@H](CCC(N)=O)NC(=O)[C@@H](NC(=O)[C@H](CCC(=O)O)NC(=O)[C@H](CO)NC(=O)[C@@H](NC(=O)[C@@H](N)CO)C(C)C)[C@@H](C)CC)C(C)C)C(C)C)C(=O)O)C2=O)C/C1=C/C=C1\CCC[C@]2(C)[C@@H]([C@H](C)CCCC(C)(C)O)CC[C@@H]12 (stereo partly shown)	–	–	male Sprague-Dawley rat, plasma	subcutaneous, 300 µg/kg, single dose	–	Cmax	109 ng/mL
NCC1CCN(c2nc(-c3ccncc3)nc3c(C#CCO)cccc23)CC1	AKT1 (Homo sapiens, UniProt P31749)	enzyme activity, inhibitor, radiometric	–	–	–	IC50	19 nM
CN1CCC[C@@H]1C(=O)N[C@@H](Cc1ccc(-c2ccccc2)cc1)B(O)O	Proteasome subunit beta type-10 / Proteasome subunit beta type-3 (Homo sapiens, UniProt P40306+P49720)	β2i activity, inhibitor	–	immunoproteasome, with: Ac-KQL-AMC	–	IC50	> 10000 nM
CCCCn1c(=S)[nH]c2cc3ccccc3cc2c1=O	Genome polyprotein protease	enzyme activity, inhibitor, FRET	–	–	–	IC50	9330 nM
COc1cc(F)c(-c2cc(Cn3cnc4c(N)ncnc43)c(N3CCC[C@](N)([C@H](O)C(F)F)C3)cn2)cc1F	NSD1 (Homo sapiens, UniProt Q96L73)	enzyme activity, inhibitor	–	–	–	IC50	95 nM

Structure (SMILES)	tested on	assay	system	conditions	how to read	quantity	result
Nc1ncc(-c2cc(-c3cnn(CC(F)(F)F)c3)ncc2F)nc1C(=O)NC1CNCC(F)C1 (stereo not shown)	PRKDC (Homo sapiens, UniProt P78527)	enzyme activity, inhibitor, radiometric	–	–	–	IC50	387 nM
Cc1ncsc1-c1ccc(C(C)NC(=O)C2CC(O)CN2C(=O)C(NC(=O)CCCCCCCCCCN2CCCC(Nc3ncc(Cl)c(Nc4ccccc4S(=O)(=O)C(C)C)n3)C2)C(C)(C)C)cc1 (stereo not shown)	22Rv1	RNA-seq, refers to: SYNM mRNA	–	concentration not given	relative to: DMSO	log2 fold change	-1.31
CN1CCCNC(=O)c2cccc(c2)C(=O)NCCCN(C)CCCNc2cccc3c2C(=O)c2cccc(c2C3=O)NCCC1	SAS	RNA-Seq, refers to: PEX1 mRNA	–	1 µM, 6 h	relative to: untreated cells	log2 fold change	0.862
O=c1c2cc3ccccc3cc2[nH]c(=S)n1CCc1ccccc1	Genome polyprotein protease	enzyme activity, inhibitor, FRET	–	–	–	IC50	31600 nM
O=C1NC2(CC2)COc2ncc(F)cc2[C@H]2COCCN2c2ccn3ncc1c3n2	CHL	chromosomal aberration test	–	75 µg/mL, 4 h, with rat liver S9	relative to: solvent control	relative population doubling	81.6%
CCn1nc(Cl)c2c1-c1cnc(N)c(c1)O[C@H](C)c1cc(F)ccc1-c1nn(C)cc1C2	IGF1R (Homo sapiens, UniProt P08069)	enzyme activity, inhibitor, radiometric	–	–	–	IC50	455 nM
O=C1/C(=N\c2ccc(Cl)cc2Br)c2ccccc2N1C(=O)c1ccccc1	PIK3CB	enzyme activity, inhibitor, ADP detection	–	–	–	IC50	605 nM
Cc1c(COc2cc(OCc3cccc(C#N)c3)c(CNC(CO)(CO)CO)cc2Cl)cccc1-c1cccc(OCCCCCC(=O)NO)c1	HDAC3	enzyme activity, inhibitor	–	–	–	IC50	74.9 nM
CC1Cc2ccccc2N1C(=O)CN1CCN(Cc2ccccc2)CC1 (stereo not shown)	DRD4 (Homo sapiens, UniProt P21917)	antagonist	–	–	–	IC50	631 nM
O=C(Cc1ccc(OCc2ccccc2)cc1)NC1(C(=O)O)CCN(C(=O)c2ccc(-c3cccc(Cl)c3)cc2)CC1	CNR1 (Homo sapiens, UniProt P21554)	antagonist, GloSensor cAMP	–	–	–	IC50	> 10000 nM
c1ccc(CN2COc3c(c4c(c5c3CN(Cc3ccccc3)CO5)CN(Cc3ccccc3)CO4)C2)cc1	Bcl-2-related protein A1 (Mus musculus, UniProt Q07440, C113S/P104K)	ligand displacement, FP	–	–	–	IC50	390000 nM
CC(C)C[C@H](NC(=O)[C@H](Cc1ccc(CN)cc1)NC(=O)[C@H](Cc1ccccc1)N=[N+]=[N-])C(=O)N[C@H](C(=O)[C@@]1(C)CO1)C1CCCCC1	PSMB6	competitive ABPP	Raji cell lysate	–	–	IC50	> 10000 nM
O=C(Nc1cccc(C(F)(F)F)c1)N1CCN(c2ccc(F)cc2)CC1	CatSper channel complex (Homo sapiens, UniProt Q7RTX7+Q86XQ3+Q8NEC5+Q96P56)	calcium influx, inhibitor, FLIPR	human sperm	with: high pH, high potassium	–	IC50	6900 nM
Cc1nc(Nc2ccc3c(c2)/C(=C/c2cn(C)c4ccccc24)C(=O)N3C)c2ccccc2n1	PIK3CB	enzyme activity, inhibitor, ADP detection	–	–	–	IC50	96.9 nM
CC[C@H](C)[C@@H]1NC(=O)[C@H](Cc2ccccc2C(F)(F)F)NC(=O)CCSCc2cccc(n2)CSCCCNC(=O)[C@H](CCCCCC(=O)NO)NC1=O	HDAC3	enzyme activity, inhibitor, fluorescence	–	–	–	IC50	18 nM
CNCc1ccc2c(c1)N(C(=O)OCc1ccccc1)[C@H](CNC(=N)N)[C@H]2NC(=O)C(=O)Nc1ccc(Cl)c(F)c1	env (Human immunodeficiency virus 1, UniProt Q75760)	HIV-1 infection	Cf2Th-CD4/CCR5 cells	48 h	–	IC50	570 nM
Nc1ncc2c(n1)-c1c([nH]c3ccc(C4=CCOCC4)cc13)CCC2	MYLK4 (Homo sapiens, UniProt Q86YV6)	target engagement in cells, BRET	–	–	–	IC50	14 nM
C[C@@H](O)[C@@H]1NC(=O)[C@H](CCCCN)NC(=O)[C@@H](Cc2ccc(NC(N)=O)cc2)NC(=O)[C@H](Cc2ccc(O)cc2)NC(=O)[C@H](NC(=O)[C@@H](N)Cc2ccc(Cl)cc2)CSSC[C@@H](C(=O)N[C@@H](Cc2ccc3ccccc3c2)C(N)=O)NC1=O	SSTR5 (Homo sapiens, UniProt P35346)	ligand displacement, radioligand	–	–	–	IC50	> 1000 nM
NCCCC[C@@H]1NC(=O)CNC(=O)[C@H](N)CSSC[C@H](C(N)=O)NC(=O)[C@@H](CO)NC(=O)[C@@H](CC(=O)O)NC(=O)[C@H](CC(=O)O)NC(=O)CNC1=O	Integrin alpha-V/beta-3 (Homo sapiens, UniProt P05106+P06756)	ligand displacement, flow cytometry	–	–	–	IC50	> 20000 nM
O=C(NO)c1cncc(OS(=O)(=O)Oc2ccc(Oc3ccccc3)cc2)c1	HDAC8 (Homo sapiens, UniProt Q9BY41)	enzyme activity, inhibitor, fluorescence	–	–	–	IC50	1880 nM
O=C1/C(=N\c2cccc(Cl)c2)c2ccccc2N1Cc1ccccc1	PIK3CB	enzyme activity, inhibitor, ADP detection	–	–	–	IC50	126 nM
Cc1c(COc2cc(OCc3cccc(C#N)c3)c(CNC(C)(CO)CO)cc2Cl)cccc1-c1cccc(OCCCCCC(=O)NO)c1	HDAC3	enzyme activity, inhibitor	–	–	–	IC50	78.1 nM
COC1CN([C@H]2CC[C@H]([C@@]3(C)Oc4c(Cl)cc(C(=O)NCc5c(SC)cc(C)[nH]c5=O)c(C)c4O3)CC2)C1	–	RNA-seq, refers to: IRF6 mouse homolog	mouse, HT-1376 xenograft, whole blood	dose not given	relative to: vehicle	log2 fold change	1.04
COc1ccc(-c2coc3cc(O)cc(O)c3c2=O)cc1	HSD3B1 (Homo sapiens, UniProt P14060)	enzyme activity, inhibitor	–	–	–	IC50	18500 nM

Some of these lines once more:
Structure (SMILES)	tested on	assay	system	conditions	how to read	quantity	result
CCn1nc(Cl)c2c1-c1cnc(N)c(c1)O[C@H](C)c1cc(F)ccc1-c1nn(C)cc1C2	IGF1R (Homo sapiens, UniProt P08069)	enzyme activity, inhibitor, radiometric	–	–	–	IC50	455 nM
O=C1/C(=N\c2ccc(Cl)cc2Br)c2ccccc2N1C(=O)c1ccccc1	PIK3CB	enzyme activity, inhibitor, ADP detection	–	–	–	IC50	605 nM
Cc1c(COc2cc(OCc3cccc(C#N)c3)c(CNC(CO)(CO)CO)cc2Cl)cccc1-c1cccc(OCCCCCC(=O)NO)c1	HDAC3	enzyme activity, inhibitor	–	–	–	IC50	74.9 nM
CC1Cc2ccccc2N1C(=O)CN1CCN(Cc2ccccc2)CC1 (stereo not shown)	DRD4 (Homo sapiens, UniProt P21917)	antagonist	–	–	–	IC50	631 nM
